Experimental data pooled from the literature.
Compare with care: the assays were run in different laboratories. ± marks the error that the study gave.
folP: Dihydropteroate synthase (folP, Bacteria, UniProt P0AC13)

For `COC1CN([C@H]2CC[C@H]([C@@]3(C)Oc4c(Cl)cc(C(=O)NCc5c(SC)cc(C)[nH]c5=O)c(C)c4O3)CC2)C1`, “log2 fold change” read 0.189 (RNA-seq, measured: TUFT1 mouse homolog; mouse, HT-1376 xenograft, whole blood; dose not given; baseline: vehicle).
The remaining binding of `Nc1ncc(-c2cc(-c3cnn(CC(F)(F)F)c3)ncc2F)nc1C(=O)NC1CNCC(F)C1` (stereo not drawn) is reported as 8% (CHEK2 human; KINOMEscan; 1 µM; baseline: control).
The koff of `C[C@@]1(CO)CC[C@]2(CO)CC[C@]3(C)C(=CCC4[C@@](C)(CCC(=O)O)C([C@@](C)(O)CO)CC[C@]43C)[C@@H]2C1` (stereo partly drawn) is reported as 1.55 s⁻¹ (High mobility group protein B1 (HMGB1, Homo sapiens, UniProt P09429); binding, BLI).
With `CC1CCCN(CCCNC(=O)C2=Cc3sc4c(c3CS2)CCCC4)C1` (stereo not drawn) the ΔH was -7.9 kcal/mol (Catenin beta-1, residues 141-305 (CTNNB1, Homo sapiens, UniProt P35222); ITC; 25 °C).
With `CC(=O)NCCCCCNc1nc(NCCCCCCN(C)C)c2cc(NC(=O)/C=C/CN(C)C)ccc2n1` the remaining signal was 139% (Histone-lysine N-methyltransferase SETDB1 (SETDB1, Homo sapiens, UniProt Q15047); cell-free assay, inhibitor, FP; 3.906 nM).
`Cn1nc(CCC#N)c(=O)c2c(=O)[nH]c(N)nc21` — result for “melting temperature shift”: 6.72 °C (folP; CETSA HiBiT; Escherichia coli, whole cells; concentration not given; baseline: DMSO).
For `CSCC[C@@H]1NC(=O)[C@H](CCC(N)=O)NC(=O)[C@H](CCCCN)NC(=O)[C@@H](NC(=O)CN)CSSC[C@@H]2NC(=O)CNC(=O)[C@H](C)NC(=O)[C@H](CC(C)C)NC(=O)[C@@H]3CSSC[C@@H](C(=O)NCC(=O)O)NC(=O)[C@H](Cc4ccccc4)NC(=O)CNC(=O)[C@H](CC(N)=O)NC(=O)[C@@H]4CCCN4C(=O)CNC(=O)[C@H](CSSC[C@H](NC(=O)[C@H](CCCNC(=N)N)NC(=O)[C@H](CCC(N)=O)NC(=O)[C@H](CCCNC(=N)N)NC(=O)[C@H](CCCCN)NC(=O)[C@H](C(C)C)NC(=O)[C@H](CCC(N)=O)NC(=O)[C@H](CC(N)=O)NC1=O)C(=O)N[C@@H](CCCCN)C(=O)N[C@@H](CCC(N)=O)C(=O)N[C@@H](CC(=O)O)C(=O)N[C@@H](CO)C(=O)N[C@@H](CC(=O)O)C(=O)N3)NC(=O)[C@H](C(C)C)NC2=O`, the kon was 1.91e+06 ± 220000 M⁻¹ s⁻¹ (Low-density lipoprotein receptor-related protein 6, E1 domain (LRP6, Homo sapiens, UniProt O75581); binding, SPR; pH 7.5).
With `COc1ccccc1-c1ccncc1C(=O)Nc1nnc(OCc2ccc(Cl)cc2)s1` the remaining activity was 93% (RECQL5 (Homo sapiens, UniProt O94762); ATPase activity, ADP-Glo; 1.9 µM, 1 h).
For `C[C@@H](Nc1nc(N[C@H](C)C(F)(F)F)nc(-c2cccc(Cl)n2)n1)C(F)(F)F`, the maximum inhibition was 98.8 ± 1.2% (Isocitrate dehydrogenase [NADP], mitochondrial, heterodimer with wild-type (IDH2, Homo sapiens, UniProt P48735, R172K); reverse reaction; 1 h preincubation, mutant).
`Cc1ncsc1-c1ccc(C(C)NC(=O)C2CC(O)CN2C(=O)C(NC(=O)CCCCCCCCCCN2CCCC(Nc3ncc(Cl)c(Nc4ccccc4S(=O)(=O)C(C)C)n3)C2)C(C)(C)C)cc1` (stereo not drawn): “log2 fold change” -2.41 (22Rv1; RNA-seq, measured: WDR88 mRNA; concentration not given; baseline: DMSO).
The AUC(0-t) of `C=C(NC(=O)c1csc(-c2nc3c(cc2O)-c2nc(cs2)C(=O)NC(C(C)O)C(=O)NC(=C(C)OC)c2nc(cs2)C(=O)NC2c4nc(cs4)C(=O)NC(COC(=O)c4c5c6c(cccc6n4O)COC(=O)C(OC4CC(C)(O)C(N(C)C)C(C)O4)C2OC5)c2nc-3cs2)n1)C(N)=O` (stereo not drawn) is reported as 0.538 µM·h (ICR mice, Streptococcus pneumoniae ATCC 49169 infected, immunocompromised, blood; intravenous, 8 mg/kg twice daily).
With `CC(C)[C@@H]1NC(=O)[C@H](Cc2ccccc2)NC(=O)CSC[C@@H](C(N)=O)NC(=O)[C@H](CCC(=O)O)NC(=O)[C@H](CO)NC(=O)[C@H](Cc2c[nH]c3cccc(Cl)c23)NC(=O)[C@H](C2CCCCC2)NC(=O)[C@H](C(C)C)NC(=O)[C@H](Cc2ccc(O)cc2)NC(=O)[C@H](CC(=O)O)NC(=O)[C@H](Cc2c[nH]c3ccccc23)NC(=O)[C@H](Cc2ccc(N)nc2)NC(=O)[C@H](Cc2c[nH]c3ccc(Cl)cc23)NC(=O)[C@H](CCC(=O)O)NC1=O` the remaining activity was 84.7% (Interleukin-1 receptor-like 2 (IL1RL2, Homo sapiens, UniProt Q9HB29); reporter gene (SEAP), inhibitor, HEK-Blue IL-36R reporter; HEK-Blue IL-36R cells; 0.046 µM, 6 h, with: IL-36β 30 ng/mL).
With `Nc1nc2[nH]nc(CC(=O)O)c(=O)c2c(=O)[nH]1` the melting temperature was 60.7 °C (folP; CETSA HiBiT; Escherichia coli, whole cells).
For `C=CC(=O)Nc1cccc(Cn2ncc3cnc(Nc4cnn(CCOC)c4)nc32)c1`, “percent of control” read 85% (MARK4 human; binding, KINOMEscan; 100 nM; lower = stronger binding).
`CC(=O)N[C@@H](CO)C(=O)N[C@@H](C)C(=O)N[C@@H](CCCCN)C(=O)N[C@@H](C)C(=O)N[C@@H](C)C(=O)N[C@@H](CC(=O)O)C(=O)N[C@@H](CC(=O)O)C(=O)N1CCC[C@H]1C(=O)N[C@@H](CCC(=O)O)C(=O)N[C@@H](CC(N)=O)C(=O)NCC(=O)N[C@@H](CCC(=O)O)C(=O)N[C@@H](CCCNC(=N)N)C(=O)N[C@@H](CCC(=O)O)C(=O)N[C@@H](CO)C(=O)N[C@@H](Cc1c[nH]cn1)C(=O)N[C@H](C(=O)N1CCC[C@H]1C(=O)N[C@H](C(=O)N[C@@H](CO)C(N)=O)C(C)C)[C@@H](C)O` gave a binding stoichiometry of 0.96 (Kelch-like ECH-associated protein 1, Kelch domain (KEAP1, Homo sapiens, UniProt Q14145); ITC; concentration not given).

For quick reference, copied from above:
The AUC(0-t) of `C=C(NC(=O)c1csc(-c2nc3c(cc2O)-c2nc(cs2)C(=O)NC(C(C)O)C(=O)NC(=C(C)OC)c2nc(cs2)C(=O)NC2c4nc(cs4)C(=O)NC(COC(=O)c4c5c6c(cccc6n4O)COC(=O)C(OC4CC(C)(O)C(N(C)C)C(C)O4)C2OC5)c2nc-3cs2)n1)C(N)=O` (stereo not drawn) is reported as 0.538 µM·h (ICR mice, Streptococcus pneumoniae ATCC 49169 infected, immunocompromised, blood; intravenous, 8 mg/kg twice daily).
